# Measured values collected from several papers.
# Protocols differ between the studies behind these lines. Numbers after ± are the reported error.
SMILES,assay,system,conditions,Cmax
N.N.O=C([O-])C1(C(=O)[O-])CCC1.[Pt+2],"ICP-MS platinum, item: platinum","human patients, plasma","dose not given, carboplatin target AUC 3, cycle 1 day 1",20000 ng/mL
OCc1ncc2n1-c1ccc(Cl)cc1C(c1ccccc1F)=NC2,,"human, plasma","oral, 2.5 mg",3.7 ng/mL
O=c1ccc2ncc(=O)n3c2n1C[C@H]3CN1CCC(NCc2cc3c(cn2)OCCC3)CC1,,"healthy human volunteers, plasma","oral, 1500 mg, arithmetic mean, alone",3990 ng/mL
OCc1ncc2n1-c1ccc(Cl)cc1C(c1ccccc1F)=NC2,,"humans, plasma","3 mg of midazolam, with: isavuconazole",3.7 ng/mL
OCc1ncc2n1-c1ccc(Cl)cc1C(c1ccccc1F)=NC2,,"healthy human volunteers, plasma","5 mg, day 11, fed, with: once daily, momelotinib 200 mg, days 4 to 11",5.3 ng/mL
OCc1ncc2n1-c1ccc(Cl)cc1C(c1ccccc1F)=NC2,,human,"concentration not given, with: risdiplam",4.1 ng/mL
CNC(=O)c1c(C)oc2cc(Oc3ccnc4cc(OCCN5CCOCC5)ccc34)ccc12,,"human, fed","concentration not given, mean",31.3 ng/mL
Cc1ncc2n1-c1ccc(Cl)cc1C(c1ccccc1F)=NC2,,"human, plasma","oral, dose not given, single dose, mean, with: rimegepant",14.6 ng/mL
Cn1ncc(-c2nc(N[C@H]3CC[C@H](N)CC3)ncc2Cl)c1CC1CC1,HPLC-MS/MS,human patients,"oral, 1 mg, day 1",1.14 ng/mL
OCc1ncc2n1-c1ccc(Cl)cc1C(c1ccccc1F)=NC2,,"human, plasma","oral, 2 mg midazolam, day 1, midazolam alone, geometric mean",2.67 ng/mL
C[C@H](NC(=O)c1c(C(F)F)nn(C)c1Oc1cccc(C(F)(F)F)c1)c1ccc(C(=O)O)cc1,,"human, plasma","125 mg, cycle 1 day 8, mean",178 ng/mL
O=C(O)C(F)(F)C(F)(F)C(F)(F)C(F)(F)C(F)(F)C(F)(F)C(F)(F)F,two-compartment model,"human, plasma","oral, 50 mg single dose, geometric mean",9250 ng/mL
N.N.O=C([O-])C1(C(=O)[O-])CCC1.[Pt+2],item: non-protein-bound platinum,"human, plasma ultrafiltrate","target AUC 2, median",9300 ng/mL
CC(=O)c1c(C)c2cnc(Nc3ccc(C4CCN(CCS(C)(=O)=O)CC4)cn3)nc2n(C2CCCC2)c1=O,,"human, plasma","oral, 75 mg twice daily, day 1, single dose, with: letrozole",149 ng/mL
CC(C)[C@H](N)C(=O)NCCCS(=O)(=O)O,,"human, plasma","oral, 265 mg twice daily, week 65, steady state",5600 ng/mL
O=C(O)C[C@H](O)C[C@H](O)/C=C/c1c(C2CC2)nc2ccccc2c1-c1ccc(F)cc1,,"human, plasma","oral, 2 mg",28 ng/mL
COc1ccc(C[C@@H]2NC(=O)[C@H]([C@@H](C)O)NC(=O)[C@@H]3[C@@H]4CCN3C(=O)[C@@H]3Cc5cn(c6ccc(F)cc56)CCCCCCN(Cc5ccc(cc5)CCNC(=O)[C@]5(C)CCCN5C2=O)C(=O)CCC(=O)N[C@@H](C)C(=O)N[C@H](CNC(=O)CCCCC[N+](C)(C)C)C(=O)N[C@@H](Cc2cccc(c2)CNC(=O)CO4)C(=O)N3)cc1,,"human, plasma","oral, 100 mg, with: sodium caprate 1800 mg",41.3 nM
CCCCCCCCCCC(=O)O[C@H]1CC[C@H]2[C@@H]3CCC4=CC(=O)CC[C@]4(C)[C@H]3CC[C@]12C,item: testosterone,"human, plasma","oral, 237 mg testosterone undecanoate, average",12 ng/mL
O[C@H]1CCCN[C@@H]1CCCn1cnc2c(Cl)c(Cl)ccc21,,"healthy human, plasma","oral, 150 mg, steady state, with: nintedanib 150 mg",318 ng/mL
CC(C)C[C@H](NC(=O)[C@H](CCc1ccccc1)NC(=O)CN1CCOCC1)C(=O)N[C@@H](Cc1ccccc1)C(=O)N[C@@H](CC(C)C)C(=O)[C@@]1(C)CO1,,"human, plasma","intravenous, 20 mg/m^2 over 10 min, cycle 1 day 1",1530 ± 407 ng/mL
OCc1ncc2n1-c1ccc(Cl)cc1C(c1ccccc1F)=NC2,,"human, plasma","oral, 7.5 mg of midazolam, day 1, arithmetic mean, no amenamevir",16.4 ng/mL
OCc1ncc2n1-c1ccc(Cl)cc1C(c1ccccc1F)=NC2,,human,"dose not given, metabolite of midazolam, with: midazolam alone",5.43 ng/mL
C=C(C)[C@@H]1CC[C@]2(NCCN3CCS(=O)(=O)CC3)CC[C@]3(C)[C@H](CC[C@@H]4[C@@]5(C)CC=C(C6=CC[C@@](COc7ncccc7C#N)(C(=O)O)CC6)C(C)(C)[C@@H]5CC[C@]43C)[C@@H]12,,"human, fed","oral, 100 mg tablet, geometric LS mean",519 ng/mL
CCN(CC)C(=O)[C@@H]1C=C2c3cccc4[nH]cc(c34)C[C@H]2N(C)C1,,"human, plasma","dose not given, after placebo pretreatment",2 ng/mL
C=CCNc1c(O)cc2c(O)c1C[C@@H](C)C[C@H](OC)[C@H](O)[C@@H](C)/C=C(\C)[C@H](OC(N)=O)[C@@H](OC)/C=C\C=C(/C)C(=O)N2,,"human, plasma",400 mg/m2,6740 ng/mL
COc1ccc(F)cc1C(=O)NCc1ccc(-c2nn([C@@H](C)C(F)(F)F)c(N)c2C(N)=O)cc1,,"human, plasma","oral, 200 mg once daily, with: oral midazolam",8750 ng/mL
COC[C@@H](NC(C)=O)C(=O)NCc1ccccc1,fluorescence quenching,"human healthy male, plasma","oral, 100 mg single",2530 ng/mL

# Some of these lines once more:
SMILES,assay,system,conditions,Cmax
COc1ccc(F)cc1C(=O)NCc1ccc(-c2nn([C@@H](C)C(F)(F)F)c(N)c2C(N)=O)cc1,,"human, plasma","oral, 200 mg once daily, with: oral midazolam",8750 ng/mL
COC[C@@H](NC(C)=O)C(=O)NCc1ccccc1,fluorescence quenching,"human healthy male, plasma","oral, 100 mg single",2530 ng/mL
